Assay results gathered from unrelated publications.
Every numbered part comes from another study and shows a few of its results, in no order. Numbers after ± are the reported error.
UniProt P15056, sequence (whole entry, looked up): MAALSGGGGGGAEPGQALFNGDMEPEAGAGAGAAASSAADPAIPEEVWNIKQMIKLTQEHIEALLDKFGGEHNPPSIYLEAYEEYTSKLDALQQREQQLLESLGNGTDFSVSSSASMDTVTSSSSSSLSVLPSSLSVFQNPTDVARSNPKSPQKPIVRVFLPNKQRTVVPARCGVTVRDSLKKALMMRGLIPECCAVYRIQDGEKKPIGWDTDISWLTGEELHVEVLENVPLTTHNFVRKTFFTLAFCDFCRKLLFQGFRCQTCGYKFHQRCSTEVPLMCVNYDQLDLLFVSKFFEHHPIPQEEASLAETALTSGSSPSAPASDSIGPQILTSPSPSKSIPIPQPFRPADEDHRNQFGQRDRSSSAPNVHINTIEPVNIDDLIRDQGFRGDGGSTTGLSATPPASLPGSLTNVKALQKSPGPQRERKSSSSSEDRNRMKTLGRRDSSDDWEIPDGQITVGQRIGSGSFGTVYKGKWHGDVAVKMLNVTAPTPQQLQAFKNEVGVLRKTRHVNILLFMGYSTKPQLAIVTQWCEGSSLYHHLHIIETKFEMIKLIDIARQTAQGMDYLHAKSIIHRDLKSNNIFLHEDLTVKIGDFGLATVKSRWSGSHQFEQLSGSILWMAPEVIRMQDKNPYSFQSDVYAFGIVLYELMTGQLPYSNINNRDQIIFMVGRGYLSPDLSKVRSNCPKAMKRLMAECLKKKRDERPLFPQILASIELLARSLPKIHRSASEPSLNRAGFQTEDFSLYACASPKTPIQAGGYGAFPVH
UniProt Q9C098, sequence (whole entry, looked up): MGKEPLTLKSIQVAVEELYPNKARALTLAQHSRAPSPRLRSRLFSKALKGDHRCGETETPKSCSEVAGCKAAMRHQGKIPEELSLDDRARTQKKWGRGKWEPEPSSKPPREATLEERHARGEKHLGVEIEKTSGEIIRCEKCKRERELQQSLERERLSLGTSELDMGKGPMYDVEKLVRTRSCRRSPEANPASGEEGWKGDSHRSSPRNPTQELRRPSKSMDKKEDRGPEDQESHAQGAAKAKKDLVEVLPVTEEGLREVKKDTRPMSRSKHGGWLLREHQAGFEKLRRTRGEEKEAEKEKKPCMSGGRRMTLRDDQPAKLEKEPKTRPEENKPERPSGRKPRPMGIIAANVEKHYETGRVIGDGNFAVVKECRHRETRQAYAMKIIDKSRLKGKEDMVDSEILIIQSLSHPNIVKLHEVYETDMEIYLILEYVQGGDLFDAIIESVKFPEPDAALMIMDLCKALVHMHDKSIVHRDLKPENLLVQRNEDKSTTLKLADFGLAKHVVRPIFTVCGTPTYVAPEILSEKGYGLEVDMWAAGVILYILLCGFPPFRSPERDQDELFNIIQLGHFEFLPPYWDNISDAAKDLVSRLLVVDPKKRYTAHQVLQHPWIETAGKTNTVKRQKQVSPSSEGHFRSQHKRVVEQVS
UniProt P68400, sequence (whole entry, looked up): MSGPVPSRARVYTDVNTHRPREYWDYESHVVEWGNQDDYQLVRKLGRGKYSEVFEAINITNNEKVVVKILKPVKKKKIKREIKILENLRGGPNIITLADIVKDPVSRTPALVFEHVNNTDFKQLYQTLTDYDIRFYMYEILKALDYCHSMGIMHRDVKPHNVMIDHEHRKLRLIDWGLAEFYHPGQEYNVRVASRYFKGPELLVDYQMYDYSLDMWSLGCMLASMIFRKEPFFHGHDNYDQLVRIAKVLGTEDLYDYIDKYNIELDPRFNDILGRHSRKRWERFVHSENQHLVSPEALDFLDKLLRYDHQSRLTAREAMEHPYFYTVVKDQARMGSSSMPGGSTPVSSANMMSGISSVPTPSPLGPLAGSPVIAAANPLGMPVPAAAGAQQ
UniProt P51957, sequence (whole entry, looked up): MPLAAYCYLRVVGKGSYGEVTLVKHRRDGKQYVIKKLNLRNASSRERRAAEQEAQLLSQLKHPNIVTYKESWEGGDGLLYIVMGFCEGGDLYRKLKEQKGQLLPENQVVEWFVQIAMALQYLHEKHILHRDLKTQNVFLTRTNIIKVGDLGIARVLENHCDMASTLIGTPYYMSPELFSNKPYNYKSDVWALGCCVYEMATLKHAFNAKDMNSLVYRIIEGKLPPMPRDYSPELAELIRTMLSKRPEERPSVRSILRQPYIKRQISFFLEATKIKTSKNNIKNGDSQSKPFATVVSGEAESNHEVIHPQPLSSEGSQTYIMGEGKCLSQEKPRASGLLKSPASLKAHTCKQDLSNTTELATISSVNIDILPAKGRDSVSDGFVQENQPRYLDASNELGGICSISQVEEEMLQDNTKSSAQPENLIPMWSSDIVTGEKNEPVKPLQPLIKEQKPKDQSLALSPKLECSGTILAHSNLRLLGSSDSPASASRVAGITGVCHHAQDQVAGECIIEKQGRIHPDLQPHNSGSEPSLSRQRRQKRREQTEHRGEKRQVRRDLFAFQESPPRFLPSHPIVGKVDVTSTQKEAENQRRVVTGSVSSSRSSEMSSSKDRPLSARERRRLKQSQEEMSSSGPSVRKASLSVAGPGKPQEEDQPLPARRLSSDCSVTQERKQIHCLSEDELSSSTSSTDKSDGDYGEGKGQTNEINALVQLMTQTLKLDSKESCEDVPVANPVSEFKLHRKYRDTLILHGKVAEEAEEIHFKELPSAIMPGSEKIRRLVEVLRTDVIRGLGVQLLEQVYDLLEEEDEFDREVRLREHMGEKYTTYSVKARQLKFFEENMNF
UniProt Q9Y6M4, sequence (whole entry, looked up): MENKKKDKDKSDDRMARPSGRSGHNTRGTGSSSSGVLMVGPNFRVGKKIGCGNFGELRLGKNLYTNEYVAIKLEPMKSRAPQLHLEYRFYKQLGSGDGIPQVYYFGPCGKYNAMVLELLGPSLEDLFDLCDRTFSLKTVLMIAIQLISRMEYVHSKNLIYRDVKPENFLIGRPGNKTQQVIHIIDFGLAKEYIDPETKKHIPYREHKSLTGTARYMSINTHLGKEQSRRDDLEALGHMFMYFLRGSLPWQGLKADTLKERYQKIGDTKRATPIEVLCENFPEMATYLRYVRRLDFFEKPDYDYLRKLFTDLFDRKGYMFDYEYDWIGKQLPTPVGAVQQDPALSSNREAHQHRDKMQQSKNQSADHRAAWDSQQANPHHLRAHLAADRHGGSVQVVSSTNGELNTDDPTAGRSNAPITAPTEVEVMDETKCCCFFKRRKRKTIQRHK
UniProt Q06187, sequence (whole entry, looked up): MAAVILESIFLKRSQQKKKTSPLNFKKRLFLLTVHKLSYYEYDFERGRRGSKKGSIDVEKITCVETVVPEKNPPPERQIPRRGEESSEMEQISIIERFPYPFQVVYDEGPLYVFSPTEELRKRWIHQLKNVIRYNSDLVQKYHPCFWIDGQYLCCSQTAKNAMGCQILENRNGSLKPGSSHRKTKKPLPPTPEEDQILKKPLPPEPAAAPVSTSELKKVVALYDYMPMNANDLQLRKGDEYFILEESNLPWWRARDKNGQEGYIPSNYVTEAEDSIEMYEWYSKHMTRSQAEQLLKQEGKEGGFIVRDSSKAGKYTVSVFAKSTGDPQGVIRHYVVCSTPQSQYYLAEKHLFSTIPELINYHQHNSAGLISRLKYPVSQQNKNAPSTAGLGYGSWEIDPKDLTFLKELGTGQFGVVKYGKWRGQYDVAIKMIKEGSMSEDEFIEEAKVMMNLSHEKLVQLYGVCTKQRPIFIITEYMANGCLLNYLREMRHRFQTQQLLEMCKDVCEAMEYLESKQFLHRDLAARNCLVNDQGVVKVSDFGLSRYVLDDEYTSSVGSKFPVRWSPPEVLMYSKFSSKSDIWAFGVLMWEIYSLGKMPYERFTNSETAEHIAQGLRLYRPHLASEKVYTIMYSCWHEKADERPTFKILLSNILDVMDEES
UniProt Q9UPE1, sequence (whole entry, looked up): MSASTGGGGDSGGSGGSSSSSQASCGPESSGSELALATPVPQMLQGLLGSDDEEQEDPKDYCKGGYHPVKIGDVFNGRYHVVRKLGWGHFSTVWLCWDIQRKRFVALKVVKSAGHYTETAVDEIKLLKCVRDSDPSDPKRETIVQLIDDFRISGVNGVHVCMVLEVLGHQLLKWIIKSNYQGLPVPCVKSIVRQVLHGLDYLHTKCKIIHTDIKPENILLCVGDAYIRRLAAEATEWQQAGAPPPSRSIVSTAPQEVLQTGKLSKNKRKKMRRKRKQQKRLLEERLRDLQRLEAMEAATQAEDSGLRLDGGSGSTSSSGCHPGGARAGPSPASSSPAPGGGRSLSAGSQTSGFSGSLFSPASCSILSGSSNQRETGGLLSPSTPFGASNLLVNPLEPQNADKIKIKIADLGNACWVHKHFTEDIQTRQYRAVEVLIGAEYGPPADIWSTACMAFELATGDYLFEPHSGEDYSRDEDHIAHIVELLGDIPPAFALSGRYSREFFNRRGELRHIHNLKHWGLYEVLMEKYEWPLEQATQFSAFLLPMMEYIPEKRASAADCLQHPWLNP
UniProt Q96NX5, sequence (whole entry, looked up): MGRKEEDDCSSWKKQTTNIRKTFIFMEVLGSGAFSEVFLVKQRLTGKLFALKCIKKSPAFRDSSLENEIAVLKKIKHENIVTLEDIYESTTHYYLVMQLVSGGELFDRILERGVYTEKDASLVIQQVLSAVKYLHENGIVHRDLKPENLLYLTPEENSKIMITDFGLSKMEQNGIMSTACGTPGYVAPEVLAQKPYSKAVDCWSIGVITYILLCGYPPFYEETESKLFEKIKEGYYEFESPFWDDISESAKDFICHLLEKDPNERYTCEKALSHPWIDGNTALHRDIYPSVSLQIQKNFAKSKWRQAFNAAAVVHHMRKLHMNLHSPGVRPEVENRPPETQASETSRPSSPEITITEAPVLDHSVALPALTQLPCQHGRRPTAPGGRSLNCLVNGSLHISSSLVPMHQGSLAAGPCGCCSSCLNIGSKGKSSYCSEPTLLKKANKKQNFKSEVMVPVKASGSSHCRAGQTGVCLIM

Set 1 — read-out: kinase activity
SMILES: COc1cc(C(=O)N2CCC(N3CCN(C)CC3)CC2)ccc1Nc1ncc2c(n1)N(C)c1ccccc1C(=O)N2C
| target | conditions | remaining activity [%] |
| --- | --- | --- |
| PHK | 10 µM | 59 ± 2 |
| EPH-A4 | 1 µM | 88 ± 2 |
| NEK6 | 10 µM | 110 ± 10 |
| CHK2 | 10 µM | 13 ± 1 |
| PAK4 | 1 µM | 94 ± 16 |
| PKCz | 1 µM | 94 ± 6 |
| PIM3 | 1 µM | 97 ± 1 |
| IKKe | 1 µM | 76 ± 2 |
| NEK2a | 1 µM | 92 ± 5 |
| TAK1 | 1 µM | 85 ± 12 |

Set 2 — read-out: enzyme activity; mode: inhibitor; concentration: 0.5 µM; relative to: control
Structure (SMILES): CN1CCN(c2ccc3nc(-c4c(N)c5c(F)cccc5[nH]c4=O)[nH]c3c2)CC1
| target | remaining activity [%] |
| --- | --- |
| BTK (Homo sapiens, UniProt Q06187) | 37.3 |
| PRKCI (Homo sapiens, UniProt P41743) | 105 |
| CSNK1A1 (Homo sapiens, UniProt P48729) | 95.1 |
| IRAK4 (Homo sapiens, UniProt Q9NWZ3) | 31.8 |
| MAP4K2 (Homo sapiens, UniProt Q12851) | 49.4 |
| CHEK1 (Homo sapiens, UniProt O14757) | 30.8 |
| WNK2 (Homo sapiens, UniProt Q9Y3S1) | 99.9 |
| NEK4 (Homo sapiens, UniProt P51957) | 83.6 |
| Cyclin-dependent kinase 9, with cyclin T1 (CDK9, Homo sapiens, UniProt P50750) | 97.7 |
| CSNK2A1 (Homo sapiens, UniProt P68400) | 114 |
| MAPK12 (Homo sapiens, UniProt P53778) | 101 |

Set 3 — read-out: cell-free assay; method: competition with immobilised ligand; concentration: 1 µM
Compound: CCCCN(CCCC)C(=O)CN1C[C@H](c2cc(OC)c3c(c2)OCO3)[C@@H](C(=O)O)[C@@H]1CC(C)(C)CCC
| target | remaining binding |
| --- | --- |
| BRAF (Homo sapiens, UniProt P15056) | 90.4% |
| PI4KB (Homo sapiens, UniProt Q9UBF8) | 80.5% |
| CSNK1G3 (Homo sapiens, UniProt Q9Y6M4) | 100% |
| PRKCE (Homo sapiens, UniProt Q02156) | 100% |
| DCLK3 (Homo sapiens, UniProt Q9C098) | 91.4% |
| SRPK3 (Homo sapiens, UniProt Q9UPE1) | 100% |
| CAMK2D (Homo sapiens, UniProt Q13557) | 100% |
| PIK3CD (Homo sapiens, UniProt O00329) | 100% |
| HUNK (Homo sapiens, UniProt P57058) | 100% |
| CAMK1G (Homo sapiens, UniProt Q96NX5) | 100% |
| MST1R (Homo sapiens, UniProt Q04912) | 100% |

Set 4 — matrix: EL4 tumour; dose: dose not given; relative to: vehicle
SMILES: CC(=O)N[C@@H](Cc1c[nH]c2ccccc12)C(=O)N[C@@H](CCC(=O)C=[N+]=[N-])C(=O)OC(C)C
| test | test system | fold change |
| --- | --- | --- |
| measured: arabonate/xylonate | mouse, EL4 tumour-bearing | 2.64 |
| measured: creatinine | mouse, EL4 tumour-bearing | 2.25 |
| measured: galactonate | mouse, EL4 tumour-bearing | 2.09 |
| measured: daidzein | mouse, EL4 tumour-bearing | 0.465 |
| measured: 3'-CMP | mouse, EL4 tumour-bearing | 2.32 |
| measured: ADP | mouse, EL4 tumour-bearing | 2.1 |
| measured: S-lactoylglutathione | mouse, EL4 tumour-bearing | 0.466 |
| metabolomics, measured: imidazole lactate | mouse | 0.457 |
| metabolomics, measured: guanosine 3'-monophosphate | mouse | 2.56 |
| metabolomics, measured: N2,N2-dimethylguanosine | mouse | 0.425 |
| measured: cystine | mouse, EL4 tumour-bearing | 4.74 |
| measured: fructose | mouse, EL4 tumour-bearing | 3.36 |
| metabolomics, measured: methionine sulfone | mouse | 0.303 |

For quick reference, copied from above (set 2):
| target | remaining activity [%] |
| --- | --- |
| Cyclin-dependent kinase 9, with cyclin T1 (CDK9, Homo sapiens, UniProt P50750) | 97.7 |
| CHEK1 (Homo sapiens, UniProt O14757) | 30.8 |
| MAPK12 (Homo sapiens, UniProt P53778) | 101 |
| IRAK4 (Homo sapiens, UniProt Q9NWZ3) | 31.8 |
